Experimental data of several laboratories.
Compare with care: the assays were run in different laboratories. Numbers after ± are the reported error. Non-standard residues stand in square brackets, D forms with d. Square brackets hold non-standard residues; d marks the D form. Ends that are not written are not given here. No end group written: not given here.
B1: PDHA1/PDHB mature heterotetramer (Homo sapiens); chain 1 FANDATFEIKKCDLHRLEEGPPVTTVLTREDGLKYYRMMQTVRRMELKADQLYKQKIIRGFCHLCDGQEACCVGLEAGINPTDHLITAYRAHGFTFTRGLSVREILAELTGRKGGCAKGKGGSMHMYAKNFYGGNGIVGAQVPLGAGIALACKYNGKDEVCLTLYGDGAANQGQIFEAYNMAALWKLPCIFICENNRYGMGTSVERAAASTDYYKRGDFIPGLRVDGMDILCVREATRFAAAYCRSGKGPILMELQTYRYHGHSMSDPGVSYRTREEIQEVRSKSDPIMLLKDRMVNSNLASVEELKEIDVEVRKEIEDAAQFATADPEPPLEELGYHIYSSDPPFEVRGANQWIKFKSVS; chain 2 LQVTVRDAINQGMDEELERDEKVFLLGEEVAQYDGAYKVSRGLWKKYGDKRIIDTPISEMGFAGIAVGAAMAGLRPICEFMTFNFSMQAIDQVINSAAKTYYMSGGLQPVPIVFRGPNGASAGVAAQHSQCFAAWYGHCPGLKVVSPWNSEDAKGLIKSAIRDNNPVVVLENELMYGVPFEFPPEAQSKDFLIPIGKAKIERQGTHITVVSHSRPVGHCLEAAAVLSKEGVECEVINMRTIRPMDMETIEASVMKTNHLVTVEGGWPQFGVGAEICARIMEGPAFNFLDAPAVRVTGADVPMPYAKILEDNSIPQVKDIIFAIKKTLNI
B2: HP 162-406 (Homo sapiens, UniProt P00738); sequence looked up; chain ILGGHLDAKGSFPWQAKMVSHHNLTTGATLINEQWLLTTAKNLFLNHSENATAKDIAPTLTLYVGKKQLVEIEKVVLHPNYSQVDIGLIKLKQKVSVNERVMPICLPSKDYAEVGRVGYVSGWGRNANFKFTDHLKYVMLPVADQDQCIRHYEGSTVPEKKTPKSPVGVQPILNEHTFCAGMSKYQEDTCYGDAGSAFAVHDLEEDTWYATGILSFDKSCAVAEYGVYVKVTSIQDWVQKTIAEN
B3: RAB8A (Homo sapiens, UniProt P61006); sequence looked up; chain MAKTYDYLFKLLLIGDSGVGKTCVLFRFSEDAFNSTFISTIGIDFKIRTIELDGKRIKLQIWDTAGQERFRTITTAYYRGAMGIMLVYDITNEKSFDNIRNWIRNIEEHASADVEKMILGNKCDVNDKRQVSKERGEKLALDYGIKFMETSAKANINVENAFFTLARDIKAKMDKKLEGNSPQGSNQGVKITPDQQKRSSFFRCVLL
Sequence of UniProt P15873 (whole entry, unmodified, looked up): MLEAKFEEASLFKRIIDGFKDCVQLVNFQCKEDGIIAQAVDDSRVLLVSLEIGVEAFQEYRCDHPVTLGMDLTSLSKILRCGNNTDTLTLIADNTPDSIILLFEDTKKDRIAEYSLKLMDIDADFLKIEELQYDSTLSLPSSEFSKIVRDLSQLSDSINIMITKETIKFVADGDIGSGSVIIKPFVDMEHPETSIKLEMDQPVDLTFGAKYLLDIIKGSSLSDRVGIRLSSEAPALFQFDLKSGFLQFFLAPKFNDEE
Sequence of UniProt P01024 (whole entry, looked up): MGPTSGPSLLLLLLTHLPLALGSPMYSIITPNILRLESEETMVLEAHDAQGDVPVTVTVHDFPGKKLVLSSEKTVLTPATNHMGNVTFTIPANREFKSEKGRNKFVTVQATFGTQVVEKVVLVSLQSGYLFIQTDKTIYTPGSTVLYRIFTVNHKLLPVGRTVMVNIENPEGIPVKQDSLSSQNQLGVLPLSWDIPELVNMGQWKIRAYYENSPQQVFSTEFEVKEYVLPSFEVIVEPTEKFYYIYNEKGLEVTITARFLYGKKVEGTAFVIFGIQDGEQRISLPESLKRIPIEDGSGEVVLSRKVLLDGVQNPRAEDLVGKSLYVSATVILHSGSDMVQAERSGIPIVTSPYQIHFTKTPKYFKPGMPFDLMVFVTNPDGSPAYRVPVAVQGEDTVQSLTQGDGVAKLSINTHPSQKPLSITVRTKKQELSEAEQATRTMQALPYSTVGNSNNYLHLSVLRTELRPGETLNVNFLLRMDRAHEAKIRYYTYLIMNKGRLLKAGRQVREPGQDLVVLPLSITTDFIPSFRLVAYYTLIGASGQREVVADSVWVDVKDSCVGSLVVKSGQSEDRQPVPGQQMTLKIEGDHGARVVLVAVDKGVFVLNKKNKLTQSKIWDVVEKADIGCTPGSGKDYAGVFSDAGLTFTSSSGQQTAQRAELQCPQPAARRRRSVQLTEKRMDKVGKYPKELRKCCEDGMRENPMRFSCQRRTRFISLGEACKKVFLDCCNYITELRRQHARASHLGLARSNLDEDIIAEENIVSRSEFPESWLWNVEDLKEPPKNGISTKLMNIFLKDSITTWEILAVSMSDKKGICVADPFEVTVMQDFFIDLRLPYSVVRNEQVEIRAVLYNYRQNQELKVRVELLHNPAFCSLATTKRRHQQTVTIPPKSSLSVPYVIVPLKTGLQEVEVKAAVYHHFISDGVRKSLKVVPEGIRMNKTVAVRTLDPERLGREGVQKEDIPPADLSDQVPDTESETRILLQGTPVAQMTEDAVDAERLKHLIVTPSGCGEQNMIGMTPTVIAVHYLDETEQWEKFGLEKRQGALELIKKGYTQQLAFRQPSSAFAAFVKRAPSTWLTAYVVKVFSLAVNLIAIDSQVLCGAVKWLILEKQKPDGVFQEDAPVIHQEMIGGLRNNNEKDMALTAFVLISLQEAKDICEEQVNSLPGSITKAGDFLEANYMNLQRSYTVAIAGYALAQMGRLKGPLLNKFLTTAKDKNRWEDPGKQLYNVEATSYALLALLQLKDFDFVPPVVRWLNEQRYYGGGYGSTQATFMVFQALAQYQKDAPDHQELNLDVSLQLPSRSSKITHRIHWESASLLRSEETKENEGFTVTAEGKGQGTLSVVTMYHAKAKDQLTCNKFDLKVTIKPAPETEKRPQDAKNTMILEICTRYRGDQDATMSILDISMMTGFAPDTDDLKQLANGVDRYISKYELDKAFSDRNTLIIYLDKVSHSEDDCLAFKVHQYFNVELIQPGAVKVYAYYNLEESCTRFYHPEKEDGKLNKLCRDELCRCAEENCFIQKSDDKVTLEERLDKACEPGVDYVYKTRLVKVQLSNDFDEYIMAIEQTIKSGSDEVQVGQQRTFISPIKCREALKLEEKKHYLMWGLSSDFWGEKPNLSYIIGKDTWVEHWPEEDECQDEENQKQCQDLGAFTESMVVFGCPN
Sequence of UniProt P19137 (whole entry, looked up): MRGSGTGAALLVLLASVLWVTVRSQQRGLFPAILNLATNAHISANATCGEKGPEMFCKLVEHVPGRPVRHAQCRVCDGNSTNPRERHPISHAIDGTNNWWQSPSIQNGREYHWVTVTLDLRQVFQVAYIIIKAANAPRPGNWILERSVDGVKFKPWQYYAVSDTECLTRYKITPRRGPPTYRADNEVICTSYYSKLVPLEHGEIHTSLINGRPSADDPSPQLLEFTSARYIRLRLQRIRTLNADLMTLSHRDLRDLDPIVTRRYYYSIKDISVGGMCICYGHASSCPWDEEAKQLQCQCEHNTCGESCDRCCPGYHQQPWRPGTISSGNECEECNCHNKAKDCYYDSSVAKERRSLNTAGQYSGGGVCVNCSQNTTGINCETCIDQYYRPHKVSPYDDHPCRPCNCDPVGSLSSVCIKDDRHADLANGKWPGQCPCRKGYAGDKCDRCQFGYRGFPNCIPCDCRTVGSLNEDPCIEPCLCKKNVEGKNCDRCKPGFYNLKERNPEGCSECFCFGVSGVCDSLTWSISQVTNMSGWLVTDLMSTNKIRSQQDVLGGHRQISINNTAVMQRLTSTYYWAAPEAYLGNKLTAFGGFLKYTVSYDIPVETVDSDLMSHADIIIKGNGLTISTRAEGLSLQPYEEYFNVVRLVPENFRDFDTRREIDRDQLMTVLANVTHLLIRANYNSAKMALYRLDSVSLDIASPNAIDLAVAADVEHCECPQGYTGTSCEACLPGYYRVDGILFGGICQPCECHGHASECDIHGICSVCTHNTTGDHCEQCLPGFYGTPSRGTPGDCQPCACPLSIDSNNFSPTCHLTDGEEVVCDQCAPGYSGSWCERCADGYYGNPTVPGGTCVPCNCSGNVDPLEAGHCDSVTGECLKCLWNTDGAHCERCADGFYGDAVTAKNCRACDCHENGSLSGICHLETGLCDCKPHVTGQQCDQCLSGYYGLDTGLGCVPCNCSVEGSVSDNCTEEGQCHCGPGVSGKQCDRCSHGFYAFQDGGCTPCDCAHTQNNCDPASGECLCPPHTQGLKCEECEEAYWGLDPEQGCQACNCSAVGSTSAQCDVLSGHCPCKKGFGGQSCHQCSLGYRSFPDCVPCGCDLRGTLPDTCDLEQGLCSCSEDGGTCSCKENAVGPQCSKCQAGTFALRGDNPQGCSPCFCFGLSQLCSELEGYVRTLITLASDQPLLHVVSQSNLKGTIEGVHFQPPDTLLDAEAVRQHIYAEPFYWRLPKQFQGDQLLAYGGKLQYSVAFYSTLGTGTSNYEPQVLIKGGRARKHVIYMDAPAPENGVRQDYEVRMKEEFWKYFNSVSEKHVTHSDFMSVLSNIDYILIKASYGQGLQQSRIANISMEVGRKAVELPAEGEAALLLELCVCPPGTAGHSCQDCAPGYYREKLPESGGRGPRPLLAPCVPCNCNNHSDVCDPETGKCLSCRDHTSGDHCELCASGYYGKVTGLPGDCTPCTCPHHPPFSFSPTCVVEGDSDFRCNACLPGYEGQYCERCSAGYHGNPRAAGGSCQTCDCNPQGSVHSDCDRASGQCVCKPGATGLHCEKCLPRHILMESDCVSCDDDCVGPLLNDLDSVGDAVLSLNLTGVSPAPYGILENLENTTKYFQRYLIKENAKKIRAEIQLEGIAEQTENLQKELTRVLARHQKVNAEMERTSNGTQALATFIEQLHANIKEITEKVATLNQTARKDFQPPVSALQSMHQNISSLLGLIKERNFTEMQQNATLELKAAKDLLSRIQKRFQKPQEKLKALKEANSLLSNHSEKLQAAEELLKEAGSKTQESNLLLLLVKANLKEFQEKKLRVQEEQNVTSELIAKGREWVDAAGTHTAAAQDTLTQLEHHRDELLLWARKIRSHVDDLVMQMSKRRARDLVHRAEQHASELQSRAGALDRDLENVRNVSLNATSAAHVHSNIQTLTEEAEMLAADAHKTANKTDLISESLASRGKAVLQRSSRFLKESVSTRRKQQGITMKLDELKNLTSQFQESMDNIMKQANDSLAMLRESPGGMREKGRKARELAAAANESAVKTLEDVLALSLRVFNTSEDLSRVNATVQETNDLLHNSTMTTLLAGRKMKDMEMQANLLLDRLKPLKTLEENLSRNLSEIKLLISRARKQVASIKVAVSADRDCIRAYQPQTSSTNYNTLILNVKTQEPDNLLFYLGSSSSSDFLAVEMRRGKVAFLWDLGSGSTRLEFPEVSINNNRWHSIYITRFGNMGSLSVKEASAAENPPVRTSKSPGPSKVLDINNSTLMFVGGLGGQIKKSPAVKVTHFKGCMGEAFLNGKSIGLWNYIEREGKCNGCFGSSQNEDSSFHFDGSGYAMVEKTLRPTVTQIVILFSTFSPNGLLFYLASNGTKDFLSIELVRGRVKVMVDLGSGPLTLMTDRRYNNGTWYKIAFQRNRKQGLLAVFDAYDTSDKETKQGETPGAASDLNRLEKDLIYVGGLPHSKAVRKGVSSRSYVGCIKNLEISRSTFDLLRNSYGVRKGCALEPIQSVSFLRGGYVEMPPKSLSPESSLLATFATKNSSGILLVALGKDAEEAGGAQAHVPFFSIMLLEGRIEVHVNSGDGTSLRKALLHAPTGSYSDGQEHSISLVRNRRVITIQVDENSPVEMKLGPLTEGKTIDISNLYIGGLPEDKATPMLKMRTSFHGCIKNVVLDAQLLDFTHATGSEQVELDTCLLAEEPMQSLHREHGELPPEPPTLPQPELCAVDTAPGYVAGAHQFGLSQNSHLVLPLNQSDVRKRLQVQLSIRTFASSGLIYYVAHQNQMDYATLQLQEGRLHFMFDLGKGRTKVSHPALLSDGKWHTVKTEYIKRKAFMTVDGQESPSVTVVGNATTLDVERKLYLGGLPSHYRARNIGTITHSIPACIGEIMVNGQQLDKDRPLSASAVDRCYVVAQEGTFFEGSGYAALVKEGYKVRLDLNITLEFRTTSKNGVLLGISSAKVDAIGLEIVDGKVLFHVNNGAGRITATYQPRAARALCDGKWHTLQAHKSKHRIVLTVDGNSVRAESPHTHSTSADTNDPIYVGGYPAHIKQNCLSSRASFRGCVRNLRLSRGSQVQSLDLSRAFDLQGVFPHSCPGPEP

The cell proliferation of `FGF2 (Homo sapiens, UniProt P09038)` is reported as 48% (FGFR3 isoform IIIc (unknown, UniProt Q61851); cell proliferation, MTT; BaF3-FGFR3c; 20 nM, 48 h, added: heparan sulfate 4.9 µg/mL; baseline: FGF 1 with heparin, higher = more proliferation).
`MPIFLDHILNKFLILHYA (SPAM peptide parental)` has a koff of 0.049 s⁻¹ (CD274 extracellular domain (Homo sapiens); BLI; peptide).
`GCVRLHESCLGQQVPCCDPAATCYCQYRGDGMKHCYCR (AgRP variant)` gave an IC50 of 900 nM (ITGAV/ITGB3 whole, on cells (Homo sapiens); competition with labeled echistatin, radioligand binding; designed binder, U87MG; 3 h, room temperature, added: 125I-echistatin 0.06 nM).
`ITGB1 whole (Gallus gallus, UniProt P07228)` has an attachment of 25% (laminin (Mus musculus, UniProt P19137); neuron attachment; E14 CG neurons; 90 min, 37 °C, no antibody; baseline: poly-D-lysine, higher = more attachment).
For `ndc-80/him-10 truncated, sfGFP-fused (Caenorhabditis elegans)`, the koff was 0.34 s⁻¹ (TUBA1B/TUBB2B taxol-stabilized microtubules; residence times, single-molecule TIRF microscopy; 30 °C).
The Vmax of `ACTC1 (Homo sapiens, UniProt P68032)` is reported as 10.2 µM/s (heavy meromyosin HMM (Oryctolagus cuniculus); myosin ATPase activity, steady-state kinetics; added: ATP 2 mM).
For `ETDKE[pY][pY]TVKD (JAK1 1029-1039; pY1034/pY1035; pY = N[C@@H](Cc1ccc(OP(=O)(O)O)cc1)C(=O)O)`, the ΔH was -16.6 ± 0.4 kcal/mol (PTPN6 243-530 Q252A/C453S (Homo sapiens, UniProt P29350); ITC; peptide).
`RFC1/RFC2/RFC3/RFC4/RFC5 (Saccharomyces cerevisiae)`: “rate of clamp opening” 2 s⁻¹ (POL30 F185W/K107C/C22S/C30S/C62S/C81S, AEDANS label on cysteine (Saccharomyces cerevisiae, UniProt P15873); stopped-flow FRET; added: ATP).
Under “stoichiometry of inhibition”, `SERPINA1 S47C, Texas Red, Alexa Fluor 488` is recorded as 1.1 (trypsin (Bos taurus); trypsin inhibition).
For `B1`, the koff was 0.04 s⁻¹ (DLAT/PDHX mature 60-mer core (Homo sapiens); NADH formation, stopped-flow light scattering; apparent, koff calculated).
Under “dissociation time constant”, `CALM1 T26C, Alexa Fluor 568 at C26 (sequence not shown)` is recorded as 1400 ms (Camk2d T287D (Rattus norvegicus); FRET; rapid Ca chelation).
For `IDEYFSEQPLKNLLLSTSEEQIAKCFIIENISTIA (IFNAR1 478-512 E500A (Homo sapiens, UniProt P17181))`, “apparent Tm reduction” read > 5 °C (TYK2 23-583 (Homo sapiens, UniProt P29597); differential scanning fluorimetry; peptide).
With `DLAT L2 domain, lipoylated` the ΔH was -21.7 kcal/mol (Pdk2 T302A (Rattus norvegicus); ITC; 30 °C, single-site, no nucleotide).
The EC50 of `B2 (HP 162-406)` is reported as 10 µg/mL (HMGB1, disulfide form (UniProt P09429); HMGB1-induced TNF release, inhibitor; RAW).
`CCND2/CDK6 fusion, linker (Homo sapiens)` has a Rb phosphorylation of 19 fold (RB1 F897A/L901A/R908A (Homo sapiens, UniProt P06400); in vitro kinase assay; baseline: wild-type Rb, higher = greater difference).
`RFC1/RFC2/RFC3/RFC4/RFC5, Cy3 on N-terminal S6 tag (Saccharomyces cerevisiae)`: “tethers with RFC” 9 of 14 tethers (POL30, LD655 label on S6 tag (Saccharomyces cerevisiae, UniProt P15873); single-molecule colocalisation; added: PCNA).
For `F8 (Homo sapiens, UniProt P00451)`, the endocytosis was 1.78 fold (C3b (Homo sapiens, UniProt P01024); flow cytometry; immature MO-DCs; 50 nM; baseline: FVIII alone, higher = more endocytosis).
`MYO19 fragment (Homo sapiens)` has a mito/cyto ratio of 1.3 (RHOT2 (Homo sapiens, UniProt Q8IXI1-1); mitochondrial localisation; HeLa; higher = more mitochondrial).
`B3 (RAB8A)` gave a relative binding of 1.9 fold (Myo5a 1260-1853 (Mus musculus, UniProt Q99104); pull-down; CHO-IR, lysate; 15 min, added: insulin 100 nM; baseline: unstimulated DMSO control, higher = more binding).
The Ki of `TIMP2 N-terminal domain S4E/N38Q/V71N/H97R/T99S` is reported as 0.31 nM (MMP1 100-269 (Homo sapiens, UniProt P03956); fluorogenic substrate cleavage, inhibitor, enzyme inhibition assay; apparent).
`KVAK[pS]PKKAKAW (H1-5 168-178 (Homo sapiens); pS172; pS = N[C@@H](COP(=O)(O)O)C(=O)O)`: “exchange rate constant” 5.8 s⁻¹ (PIN1 51-163 (Homo sapiens, UniProt Q13526); EXSY NMR; peptide; 1 mM peptide, 25 °C).
`Lamb1 (Mus musculus, UniProt P02469)` — result for “laminin extracted fraction”: > 50% (laminin/entactin complex (Mus musculus); competitive extraction; tissue matrix; 15 µM).
The Vmax/Km of `UGT1A9 (Homo sapiens, UniProt O60656)` is reported as 30 µL/min/mg (COc1ccc(-c2coc3cc(O)ccc3c2=O)cc1; steady-state kinetics; pH 7.4, 37 °C).
`SLC27A4 ERx to C-terminus` — result for “inhibition of 11-cis-retinol synthesis”: 50% (RPE65 (Homo sapiens, UniProt Q16518); HPLC; 293T-LC; 4 hours, normalised by RPE65 expression, added: all-trans-retinol 7 µM; baseline: pRK control, higher = stronger inhibition).
`CFH mature protein V62I (Homo sapiens)` gave a cofactor activity of 20% (C3b (UniProt P01024); fI-mediated C3b cleavage; fluid phase; baseline: fH-Val62, higher = more cofactor activity).
`RFC1/RFC2/RFC3/RFC4/RFC5 Rfc1 284-end (Saccharomyces cerevisiae)` — result for “release rate constant”: 0.26 s⁻¹ (POL30 1-258 C22S/C62S/C81S/S43C, MDCC on Cys43 (Saccharomyces cerevisiae, UniProt P15873); stopped-flow fluorescence; 20 °C, added: ATP 0.5 mM).

Repeated from above:
`KVAK[pS]PKKAKAW (H1-5 168-178 (Homo sapiens); pS172; pS = N[C@@H](COP(=O)(O)O)C(=O)O)`: “exchange rate constant” 5.8 s⁻¹ (PIN1 51-163 (Homo sapiens, UniProt Q13526); EXSY NMR; peptide; 1 mM peptide, 25 °C).
`Lamb1 (Mus musculus, UniProt P02469)` — result for “laminin extracted fraction”: > 50% (laminin/entactin complex (Mus musculus); competitive extraction; tissue matrix; 15 µM).
The Vmax/Km of `UGT1A9 (Homo sapiens, UniProt O60656)` is reported as 30 µL/min/mg (COc1ccc(-c2coc3cc(O)ccc3c2=O)cc1; steady-state kinetics; pH 7.4, 37 °C).
